Assay results collected from several papers.
Each numbered part is a random draw from the data of one study; scales do not carry over between parts. Substitutions count along the parent as printed.

Study 1 — target: CCNA2, cyclin fold, Cln2 fusion (human); method: yeast growth competition, sequencing; medium: yeast; setting: strong parent motif; reference: not given; direction: higher = stronger binding
Starting sequence: MICAL3 docking peptide (human); LQLRRQLSFSEDS; partner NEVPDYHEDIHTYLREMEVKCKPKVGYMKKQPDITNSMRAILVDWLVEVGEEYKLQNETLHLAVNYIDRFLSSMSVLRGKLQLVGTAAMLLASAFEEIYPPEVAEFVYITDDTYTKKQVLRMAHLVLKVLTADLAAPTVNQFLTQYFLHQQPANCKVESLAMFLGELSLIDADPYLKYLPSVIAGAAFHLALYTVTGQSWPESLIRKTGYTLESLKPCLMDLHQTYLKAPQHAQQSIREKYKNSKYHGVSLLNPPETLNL
Variant	normalised enrichment score
L7M	0.386
S10W	1.72
S10L	2.1
Q2T	3.66
Q6Y	1.66
D12A	3.83
Q6S	2
Q6G	0.975
L7S	-0.172
D12F	3.02
R4T	-0.062
S8F	3.76
Q2G	3.62
E11R	2.36
L3M	2.79
D12W	2.49
L7T	-0.21
E11D	3.68
Q2A	3.57
R4H	0.536
S10R	2.61
L7C	-0.086
Q2C	3.7
S10C	2.66
Q2P	4.76

Study 2 — method: protein binding microarray; molecule type: double-stranded DNA, one strand shown; medium: in vitro; concentration: not given; reference: not given; direction: higher = stronger binding
Target: Histone acetyltransferase KAT6A, winged helix 1, GST fusion (KAT6A, Homo sapiens, UniProt Q92794, residues 1-85)
Setting: 8-mer, flanks averaged, mean of 2 arrays, mostly near background
Residues (chain): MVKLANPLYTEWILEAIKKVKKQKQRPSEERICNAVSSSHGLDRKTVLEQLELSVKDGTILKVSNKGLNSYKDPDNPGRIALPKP
Oligonucleotide	E-score
ACGGCGTA	0.293
AGCTGCAC	-0.0391
ACGGGTTG	0.332
CGCAGAAA	0.0738
AGGAGCAA	-0.216
GAAACTGA	0.102
CTACCTGA	-0.173
GCCAGAAA	-0.227
ACTTGCTC	-0.197
ATAAGCTG	-0.153
CGTAAACC	0.182
CCCCGTGA	0.171
CGCGAGAA	0.257
ATTCTCCC	-0.229
CAGTAGAG	-0.167
CAAGTCGC	-0.019
CAAGAGAG	-0.213
CATAAAAC	-0.00654
AAACGAGG	-0.169
CGCTAAAA	0.194
CGGACAGC	0.193
CACAATAG	-0.0595
GCGTAATA	0.137
GGAAAGTA	0.0294
CTCGAATA	-0.134

Study 3 — method: RNA Bind-n-Seq; molecule type: RNA; medium: in vitro; concentration: 365 nM; reference: no-protein control; direction: higher = stronger binding
Target: RNA binding protein fox-1 homolog 2, RRM domain, GST-SBP tag (RBFOX2, Homo sapiens, UniProt O43251-10, residues 100-194)
Setting: natural RNA segment, single round, ends assumed
Target sequence (chain): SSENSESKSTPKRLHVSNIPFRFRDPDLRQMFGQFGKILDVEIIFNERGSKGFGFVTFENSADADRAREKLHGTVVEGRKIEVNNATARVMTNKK
Oligonucleotide	RBNS enrichment (R)
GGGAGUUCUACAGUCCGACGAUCGGAAGCCUACUGUGAUGGUUUGUAUAUGCUUGGGCCGGGGAGUGGCGCUAUUAGGAAGCGUGGCCUUUUUGGACUAGGUGUGUCACUGUGGCUGUGGGGUAUAGCACCCUUGGAAUUCUCGGGUGCCAA	1.27
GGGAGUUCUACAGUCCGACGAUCGUGUUAGGGAAAGAAAUCACAUGUUCAGAGCCUAAUUCAGUAGGAAGGGCUUUUCUCUACCCUGAAAUGAAGGUAAUCCAAAGGCAUCCAUUUUCUAGGCUUAAAAGAUAUGGAAUUCUCGGGUGCCAA	0.419
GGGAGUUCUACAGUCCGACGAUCAUCAGCCUAGGAGAGCAGAUGCAGCUCCAGGGGCUCGACUUAUAGCCAGUUACAGCUCCCCGGCUCUUCUGUGUGGCAGAGCGUCGUUUCCGGGCCCUCAGGGCUGGGGAUGGAAUUCUCGGGUGCCAA	0.285
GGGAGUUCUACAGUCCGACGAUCGUUACUAAGGUGCCUGCUAGCCAUUGUAUAAAAUUAAAACAUGAAGAAUAUUUUUUUUUUGAGCAUGGCUAGUGGAUUUAAAACAACACAUACCUGUCACUGCUGGAGUCUGGAAUUCUCGGGUGCCAA	0.387
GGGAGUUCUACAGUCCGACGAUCUGUGUCCGUGUGCAUGGCCUGUUUGUGUGCAAGGGCCCAGGACAGAAGUAUGUGUGCGUGUGUGUGUGCGUAUGCGUGUGAGACAGGGCCGCCGUGGGUGUGCGUGUGUGUGGAAUUCUCGGGUGCCAA	2.23
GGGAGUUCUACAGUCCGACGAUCUGUAGCUCAGAGUGCUUGUCUAACAUGCAAAAACCCUUGGAUUCAAUUUCUAGUACUGUUAGAAGAGUGACUAGUUAGAUUCUGUGUAUGUGUGCUAUUAAUUCAUAGAAUGGAAUUCUCGGGUGCCAA	1.05
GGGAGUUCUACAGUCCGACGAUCUCCACCUGCAAGGUCUUUCAGGUAGAACUCUUCUUUUAAGGCAAUUAGCCCAUUGCCAAAAGGUUUUACUGUCUUAAAGCUGUCUUUCUGAGAUCUAAUUCCAAGGACUUUGGAAUUCUCGGGUGCCAA	0.385
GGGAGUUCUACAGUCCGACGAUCUGGUGAAAGCACUGCUGCCCAGCCUCCAAGCUCCAUCUCCACUCCAGAUUUUUUACAGCUGCCUGCAGUACUUUACCUCCUAUCAGAAGUUUCUCAGCUCCCAAGGCUCUUGGAAUUCUCGGGUGCCAA	0.421
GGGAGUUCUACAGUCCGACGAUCGAGGGUGGGGUACUGGAGUUAGAUCUCUAAGCCCCUCCUGGAACCCUCAUUUUCCCCACUCUCAAUGUCCCAGUGUCCAGCGUGACUAAGGACACGGGCCCCCUUCCGUCUGGAAUUCUCGGGUGCCAA	0.627
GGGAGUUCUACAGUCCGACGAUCCUGGUCUGUGUCCUUUUGCCUUAGUCCAUGCAUACUCAUUAAGGAAAAAAAGUACCAUUGUGCUAAACGCUACUGAGACUAACCAGGAAACCCUAACGAUGAAGAUGGUCUGGAAUUCUCGGGUGCCAA	0.357
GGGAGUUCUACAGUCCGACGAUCUGUCCCAUUAAGAUUUGGGCACAGAUAAGACAUCUUCCACUUUCCAUCCUUCCUACAGUUAGAGCCCCAGUAGUGCGAGAAGGCCCCAUAUAUGGCAGCAUUCAGCUCUCUGGAAUUCUCGGGUGCCAA	0.358
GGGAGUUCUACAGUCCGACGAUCUCCCUCCACUGCCUCGAAGAGUCAGUCUGCCCUGCCUUUUCCUUUCGGGCACCACCAGCCAUCCCCGAGUGCCCUGUAGCCACUCACCACUGCUGCCACCUCUCUGGCCAUGGAAUUCUCGGGUGCCAA	0.948

Study 4 — method: RNA Bind-n-Seq; molecule type: RNA; medium: in vitro; concentration: 100 nM; reference: input RNA pool; direction: higher = stronger binding
Target: RING finger protein unkempt homolog, zinc fingers 1-6, SBP tag (UNK, Homo sapiens, UniProt Q9C0B0, residues 30-357)
Chain of UniProt Q9C0B0 (30-357, looked up): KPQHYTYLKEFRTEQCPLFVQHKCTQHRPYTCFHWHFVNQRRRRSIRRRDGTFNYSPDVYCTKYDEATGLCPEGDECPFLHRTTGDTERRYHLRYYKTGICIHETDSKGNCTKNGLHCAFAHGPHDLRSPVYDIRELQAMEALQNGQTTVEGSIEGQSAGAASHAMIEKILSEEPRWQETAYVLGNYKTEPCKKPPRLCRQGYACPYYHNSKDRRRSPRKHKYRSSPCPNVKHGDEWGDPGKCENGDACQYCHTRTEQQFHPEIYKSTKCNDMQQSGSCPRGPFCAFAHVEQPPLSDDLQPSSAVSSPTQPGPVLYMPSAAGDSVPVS
Setting: RNA with constant flanks, vertebrate orthologous sites, ends assumed
Oligonucleotide	bound/input enrichment [ratio]
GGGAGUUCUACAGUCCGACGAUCGUGUGUGGGGUAGCCUUGGCCCCUGCCUUGGCCUUGCCUCUCCUCCCUGUCACCUGCCCCUAGUUAUUUUUUUUGACCACCACGUGAUUAUGGUCGGUGCUGCCUCCCCCGACCUGCUCACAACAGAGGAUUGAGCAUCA	8.23
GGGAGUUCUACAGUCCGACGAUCCUCUCUCAGUGACAGUAUCCCAUCUGUAGCUGAUUCUCACUCAAGUCACUUUUCUGAGUUUAGUUGCUCUGAUAUGGAAAGUAUGAAAACCUCAUGUAGCCAUGGCUCCAGUGAUUAUCACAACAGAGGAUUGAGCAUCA	0.475
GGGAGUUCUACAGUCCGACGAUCUCACUUGUUGAUUAUAAUUACUUAGAUAAGAAAUUUUUACUGUUGAUGGUUGCCGUGAAAAUGGCCUAUCCUAUUUUUUUUUUAAAUCAGUUUUGCAAAGAUCAGUUUUGUGGCUUCGUACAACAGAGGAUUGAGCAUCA	0.512
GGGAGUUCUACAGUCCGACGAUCCUACAAUAAUGAAAAACCUACCAGGAAUUUUUUUAUUUUUCAUUUCCCCUUAGGCAUUCCUAGUCUUUUUCCCCCCAGGCAGAUCAUUCUGAGUGUGCGAGUGUGUGUGCACAUGUUACACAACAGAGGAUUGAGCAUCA	0.815
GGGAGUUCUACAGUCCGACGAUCAUCUCUCAUUUUGUAUGUCCAAAAAAGGUUUUGAAUUUUUAAACAAUUGCUAGUUUUGAUUAGCUCUGCCCUCAUGAAGUAUUAUUAUAAUCACCACAAACAGAUAUCUGUCUGAAUUACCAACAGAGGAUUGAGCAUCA	0.679
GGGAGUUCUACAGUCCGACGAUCAGAACAUUUUAACCAAGAAUCUGAAGGUAGAAAUACAGGACCAUGGUUAUCUUCCUCAUUUAGAAAUAGAUGCACACCUUUGUUUUCUAGAAGGAGGCGAGAGGGAAGAGAUGAGUCUUCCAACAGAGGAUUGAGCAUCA	0.672
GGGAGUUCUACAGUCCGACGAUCGAAGUGUCCCAUUGUCACUGAGAACCACCAAAUUUGACUUUCACAUUUGGUCUCAGAAUUUAGGUUCCUGCCCUGUUGUUUUUCUUUCGUUUUCUUAAAACAAACAAACAGUUUUCAGAACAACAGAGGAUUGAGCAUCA	0.288
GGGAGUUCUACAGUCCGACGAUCCCCUCUGAACCCCAUAUCUUCUGUCUCAUAGUGCAGAAGUAGUCUUUUCAAUUAUAUUAUUAAUGGACUUGUUUUAAUUUUAGGGAAACUUUCAGUACAGAUACUGUGAGCUUACAUGGACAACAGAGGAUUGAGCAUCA	3.59
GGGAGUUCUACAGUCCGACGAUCACAGGAGCAGCAUAGGCUGUUUGAGCUUUGGGGAAAUGAGCUUUGCUUUUUAUAUUUAACUAGGAUACUUUUAUAUGAUGGGUGCUUUGAGUGUGAAUGCAGCAGGCUCUUUAUUUCUGACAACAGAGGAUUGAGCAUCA	1.5
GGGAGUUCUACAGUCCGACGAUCCCGAAAGGCCAAAUUCCCUCCUCCCUCCUACUGCUUCUACCAACUGGAAGCACAGAAAACUAGAAUUUCAUUUAUUUUGUUUUUAAAAUAUAUAUGUUGAUUUCUUGUAACAUCCAAUAGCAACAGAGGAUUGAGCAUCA	0.498
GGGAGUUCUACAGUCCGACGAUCGUUGGUGCAGAGUGCUCUCUGUAUCAGUGCCCAUCAUCCCUUCUUCAUACCAACUGUCCCUAGUUAUAGGAAUUUAAUAUUUUUAAAAGUUUUACAUUGCUGUAUAUUCAAAGAUUUGUUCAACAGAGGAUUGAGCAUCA	1.15

For quick reference, copied from above (study 2):
Oligonucleotide	E-score
CTACCTGA	-0.173
ACGGGTTG	0.332
CTCGAATA	-0.134
ATTCTCCC	-0.229
CAGTAGAG	-0.167
CGCAGAAA	0.0738
CAAGAGAG	-0.213
CCCCGTGA	0.171
AGGAGCAA	-0.216
